Results of several laboratories.
Compare with care: the assays were run in different laboratories. Numbers after ± are the reported error.
Sequence of UniProt P08684 (whole entry, looked up): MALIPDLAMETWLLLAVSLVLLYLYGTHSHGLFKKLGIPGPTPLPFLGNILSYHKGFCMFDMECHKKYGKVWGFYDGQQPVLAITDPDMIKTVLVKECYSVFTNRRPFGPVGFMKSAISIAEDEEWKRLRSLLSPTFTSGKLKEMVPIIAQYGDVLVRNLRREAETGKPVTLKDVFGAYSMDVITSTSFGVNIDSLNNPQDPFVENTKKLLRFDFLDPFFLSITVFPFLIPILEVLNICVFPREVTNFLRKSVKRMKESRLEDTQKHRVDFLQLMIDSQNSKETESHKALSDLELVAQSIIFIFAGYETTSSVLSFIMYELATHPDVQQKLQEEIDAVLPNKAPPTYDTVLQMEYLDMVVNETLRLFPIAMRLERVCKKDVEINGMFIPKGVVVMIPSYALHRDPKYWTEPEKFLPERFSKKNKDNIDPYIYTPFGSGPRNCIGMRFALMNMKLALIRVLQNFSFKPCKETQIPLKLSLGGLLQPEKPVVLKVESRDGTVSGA

SMILES	target	test	system	setting	scale	measurement	result
[64Cu+2].c1cnc(CNCc2ccc(CN3CCCN4CCNCCCN(CC4)CC3)cc2)nc1	CXCR4	–	NOD/SCID mouse, U87 and U87-stb-CXCR4 xenografts, muscle	iv, 120 min, ex vivo	–	tissue uptake	0.34 ± 0.03 %ID/g
C=CC(=O)Nc1cc(Nc2nccc(-c3cn(C)c4ccccc34)n2)c(OCC(F)(F)F)nc1N(C)CCN(C)C	Cytochrome P450 3A4 (CYP3A4, Homo sapiens, UniProt P08684)	enzyme activity, inhibitor	human, liver microsomes	0.1 µM, testosterone probe	–	activity vs control	100%
N#CCc1cccc(Cl)c1-c1ccc2[nH][11c](=O)[nH]c2c1	P-glycoprotein and Bcrp	ex vivo brain uptake	mouse	injection, 30 min, with: tariquidar	baseline: without tariquidar	brain-to-blood ratio increase	206%
O=c1c(/C=N/NC(=S)N/N=C/c2ccccc2O)coc2ccccc12	Cu2+ complex	potentiometric titration	–	25 °C	–	log stability constant	20
COc1ccc2cc(-c3ccc(-c4ccc(C)cn4)nc3)oc2c1	zinc(II)	–	neutral aqueous solution	zinc saturation	baseline: zinc-free ligand	emission wavenumber shift	1840 cm⁻¹
O=C(O)[C@@H]1C[C@@H](O)CN1C(=O)[C@@H]1CCCN1	iron(III) ion	complex formation, from log β	aqueous 0.15 M NaCl	40 °C, MA2 complex species	–	−ΔG	33.9 kcal/mol
COc1cccc2c1C(=O)c1c(O)c3c(c(O)c1C2=O)CC(O)(C(=O)CO)CC3OC1CC(NC(=O)C[C@H](N)C(=O)O)C(O)C(C)O1 (some centres unmarked)	P-glycoprotein (MDR1)	–	MDCK-MDR1	50 µg/mL, 60 min	–	Papp (A-B)	0.67 ± 0.045 ×10⁻⁶ cm/s
NC(=S)N/N=C/c1cc(Cl)ccc1O	Cu2+ complex	potentiometric titration	–	25 °C	–	log stability constant	19.1

For quick reference, copied from above:
SMILES	target	test	system	setting	scale	measurement	result
C=CC(=O)Nc1cc(Nc2nccc(-c3cn(C)c4ccccc34)n2)c(OCC(F)(F)F)nc1N(C)CCN(C)C	Cytochrome P450 3A4 (CYP3A4, Homo sapiens, UniProt P08684)	enzyme activity, inhibitor	human, liver microsomes	0.1 µM, testosterone probe	–	activity vs control	100%
